Published values pooled from the literature.
Each numbered part is a random draw from the data of one study; scales do not carry over between parts. Changes are numbered by the printed parent chain.

Study 1
Target: RNA binding protein fox-1 homolog 2, RRM domain, GST-SBP tag (RBFOX2, Homo sapiens, UniProt O43251-10, residues 100-194)
Method: RNA Bind-n-Seq
Form: RNA
Medium: in vitro
Concentration: 365 nM
Notes: natural RNA segment, single round, ends assumed
Baseline: no-protein control
Direction: higher = stronger binding
All sequences stand within: GGGAGUUCUACAGUCCGACGAUC … UGGAAUUCUCGGGUGCCAA
Construct (chain): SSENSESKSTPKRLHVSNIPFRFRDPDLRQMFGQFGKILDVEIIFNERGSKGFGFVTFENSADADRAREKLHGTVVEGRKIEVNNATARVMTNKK
Under “RBNS enrichment (R)”, `AAAAAUAACCCUAAAGUGAAGUGGCUCUAUACUGUUUUAUAGAGUACUUUAACGUGUAUAGAUAUCUUGUAAACUUGUAUUGUGGAUGUGUAAAUAAUAUGUACUUUGGG` is recorded as 1.68.
Under “RBNS enrichment (R)”, `AUGCAGUGUGAGGGCCCAAAGCUUAUCCUCAAAUAGUCCUGUUUGCCAGGCUCAGUUCCCACCCACACCAGCACUUCCCUUCCUUCUGGUUUUCUGCCUGUGUGCUGCCC` is recorded as 0.471.
`CCCGCCCAUUGCUUUGGAGCACAGAUGACUCUGGGGGCAGAGGUGGGCUCUGUUUAGGAGGGCAGUGAGACCACCCAGCCAAAUUGCUUCUCAACCCUAGACAAAGCCUU`: “RBNS enrichment (R)” 0.594.
Under “RBNS enrichment (R)”, `UCCAGACCCCUCUCUAGGACCAAGUCACCCGUCGUGCUGGGAGUGUGGAUUCUAGCAAAAGAGCUGGAAAAAAGUCAGACUCUCCACAGACCCCCUAUGGGGGACCCCCA` is recorded as 0.356.
`GUGCGCUCUUUUGAUACAUACAUUUACCUGCUGUUUUUCUCAAAUAAAAGUUGCAAGCUACUGCUCACCACCGUCUGACUCCAGAGUUAUUAUGGUGGGCUAGGGAUGGG` — result for “RBNS enrichment (R)”: 0.415.
Under “RBNS enrichment (R)”, `AGGGCACCGCCUCCCCGUGUCCUGUGUUUGGUCAGACACCUGCCCUUCACCCUCUGUGUCCAGAGGCCCAGCAUCUGUCACACAUCAAGGGGGCGUUUAUUCAGUCUUAG` is recorded as 0.328.
`UAAGAGUCCCUGAGAGAGCUUCAGCUUAUAACAAGGCUAAUUUUAGGUUGUACGUCAUUCUCGAUGUUUAACAUGAGAAGCAAGGAAGGCAUGAUUUUUAUCAGUGAUUU` — result for “RBNS enrichment (R)”: 0.556.
Under “RBNS enrichment (R)”, `GUGUACAGAGAGGCCCGUGCUAGCUAGCACCAAGUUGGUUGACAGAUUGUUUUGUGAUGCUUGCCCUGCCUCGGUAUUGCCAGUUUCUUGUGCAAUAAAGAAUCAGCAGC` is recorded as 0.417.

Study 2
Target: ABI1, truncated, D143A, DHFR fusion (Arabidopsis thaliana)
Method: DHFR PCA, deep sequencing
Medium: yeast
Notes: methotrexate growth selection, single substitutions
Added: (+)-ABA 710 µM
Baseline: wild-type fitted maximum
Direction: higher = stronger binding
Starting sequence: PYL1, truncated, DHFR fusion (Arabidopsis thaliana); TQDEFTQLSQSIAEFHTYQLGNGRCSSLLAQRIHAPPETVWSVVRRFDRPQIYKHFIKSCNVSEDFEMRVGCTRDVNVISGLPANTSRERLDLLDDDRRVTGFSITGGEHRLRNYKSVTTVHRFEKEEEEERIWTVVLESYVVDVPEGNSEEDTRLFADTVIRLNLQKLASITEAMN
`E129G` — result for “relative binding score”: 116%.
`V76M` — result for “relative binding score”: 84.5%.
`N114Y`: “relative binding score” 59.7%.
`E125P`: “relative binding score” 110%.
For `V137C`, “relative binding score” read 88.7%.
`E130I` — result for “relative binding score”: 108%.
For `K58H`, “relative binding score” read 103%.
For `E151T`, “relative binding score” read 98.7%.
For `V76P`, “relative binding score” read 0.394%.
`A158Y` — result for “relative binding score”: 2.94%.
`K54I`: “relative binding score” 4.92%.
`T39A` — result for “relative binding score”: 99.9%.
`R49I` — result for “relative binding score”: 84.6%.
`E4P` — result for “relative binding score”: 99.5%.
`V78I` — result for “relative binding score”: 110%.
Under “relative binding score”, `V44L` is recorded as 95.4%.
Under “relative binding score”, `E38V` is recorded as 80.8%.
Under “relative binding score”, `R88H` is recorded as 104%.
Under “relative binding score”, `R32E` is recorded as 96.1%.
`D96W` — result for “relative binding score”: 55.3%.
Under “relative binding score”, `F124P` is recorded as 90.6%.
`A170Y`: “relative binding score” 39.3%.
Under “relative binding score”, `K126S` is recorded as 108%.

Study 3
Target: Histone acetyltransferase KAT6A, winged helix 2, GST fusion (KAT6A, Homo sapiens, UniProt Q92794, residues 85-181)
Method: protein binding microarray
Form: double-stranded DNA, one strand shown
Medium: in vitro
Concentration: not given
Notes: 8-mer, flanks averaged, mean of 2 arrays, mostly near background
Baseline: not given
Direction: higher = stronger binding
Construct (chain): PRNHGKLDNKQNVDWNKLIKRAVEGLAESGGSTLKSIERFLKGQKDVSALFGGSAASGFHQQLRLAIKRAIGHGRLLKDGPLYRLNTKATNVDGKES
`AAGAACAG` has an E-score of 0.00907.
`AAACCGCC` has an E-score of 0.153.
`ACTTCTTG` has an E-score of -0.0752.
For `ACGAGCCA`, the E-score was 0.0483.
For `ATCGCCTG`, the E-score was 0.0572.
The E-score of `AGGTTAAA` is reported as 0.00258.
The E-score of `CGGGTAAA` is reported as 0.0763.
With `TGCCCTAA` the E-score was 0.0544.
With `AGAGTTCA` the E-score was -0.108.
For `AGTAAGCC`, the E-score was -0.116.
With `CCCTATGA` the E-score was -0.146.
For `GCGTTTGA`, the E-score was -0.0899.
With `AGTGATCA` the E-score was -0.0749.
The E-score of `ACGCGATG` is reported as 0.0364.
With `ATCATGTG` the E-score was -0.191.
For `ACTAGAGA`, the E-score was -0.0807.
`CCCAAAGG` has an E-score of 0.0466.
With `ACAAAGTA` the E-score was 0.115.
For `CTGACCAC`, the E-score was -0.157.

Study 4
Target: CCNB2, cyclin fold, Cln2 fusion (human)
Method: yeast growth competition, sequencing
Medium: yeast
Notes: weak parent motif
Baseline: not given
Direction: higher = stronger binding
Starting sequence: CDC42EP1 docking peptide (human); SLVVGKLSFDSSP; partner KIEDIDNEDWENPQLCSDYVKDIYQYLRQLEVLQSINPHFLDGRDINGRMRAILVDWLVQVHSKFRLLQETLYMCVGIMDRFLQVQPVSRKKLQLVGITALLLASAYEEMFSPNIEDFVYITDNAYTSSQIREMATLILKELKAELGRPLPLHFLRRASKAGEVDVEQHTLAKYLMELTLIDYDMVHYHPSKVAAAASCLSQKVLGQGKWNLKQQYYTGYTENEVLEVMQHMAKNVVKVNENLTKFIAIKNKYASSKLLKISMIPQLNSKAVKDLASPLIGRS
For `SLVVGKLSADSSP [F9A]`, “normalised enrichment score” read -1.1.
Under “normalised enrichment score”, `SLVVGKLSFDASP [S11A]` is recorded as -0.596.
`SAVVGKLSFDSSP [L2A]`: “normalised enrichment score” -0.324.
`SLVVGKLSFASSP [D10A]`: “normalised enrichment score” -0.236.
For `SLVVGKLSFDSAP [S12A]`, “normalised enrichment score” read -0.00863.
`SLVVGKLAFDSSP [S8A]` — result for “normalised enrichment score”: -0.516.
Under “normalised enrichment score”, `SLVAGKLSFDSSP [V4A]` is recorded as -0.489.

Study 5
Target: CRIPT, C-terminal peptide
Method: DHFR complementation, deep sequencing
Medium: yeast
Notes: single substitutions, model-inferred values
Baseline: wild type
Direction: higher = weaker binding
Starting sequence: ERBIN, PDZ domain 1 (human); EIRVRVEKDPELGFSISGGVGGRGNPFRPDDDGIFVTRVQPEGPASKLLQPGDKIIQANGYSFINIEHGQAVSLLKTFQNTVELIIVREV; partner TKNYKQTSV
`V36I`: “binding free energy change” 0.0631 kcal/mol.
`S46Q` — result for “binding free energy change”: 0.0043 kcal/mol.
`L84V` — result for “binding free energy change”: 0.144 kcal/mol.
Under “binding free energy change”, `I55F` is recorded as 0.725 kcal/mol.
`F35V` — result for “binding free energy change”: 0.833 kcal/mol.
For `G24S`, “binding free energy change” read 0.883 kcal/mol.
Under “binding free energy change”, `I85D` is recorded as -0.0415 kcal/mol.
`V20M` — result for “binding free energy change”: -0.213 kcal/mol.
Under “binding free energy change”, `F63P` is recorded as 0.458 kcal/mol.
`I34F`: “binding free energy change” 0.709 kcal/mol.
For `I66M`, “binding free energy change” read 0.152 kcal/mol.
Under “binding free energy change”, `L74H` is recorded as 0.0858 kcal/mol.
Under “binding free energy change”, `Q70E` is recorded as -0.0624 kcal/mol.
`G18K`: “binding free energy change” 1.46 kcal/mol.
Under “binding free energy change”, `L48F` is recorded as 0.0165 kcal/mol.
Under “binding free energy change”, `G13L` is recorded as 0.898 kcal/mol.
`N65K`: “binding free energy change” 0.144 kcal/mol.

Further values, each from its own experiment
The fold induction of `PhoQ, residues 284 288 289 292 302 303 TLMATV` is reported as 21.1 (PhoP, residues 12 14 15 18 19 NQAHL (Escherichia coli, UniProt P23836); Sort-seq, refers to: YFP reporter; E. coli; PhoQ-PhoP variant library, added: 10 µM Mg2+; baseline: high Mg2+ state, higher = stronger signaling).

Repeated from above (study 3):
The E-score of `AGGTTAAA` is reported as 0.00258.
For `ACTAGAGA`, the E-score was -0.0807.
For `CTGACCAC`, the E-score was -0.157.
`CCCAAAGG` has an E-score of 0.0466.
`ACTTCTTG` has an E-score of -0.0752.
The E-score of `CGGGTAAA` is reported as 0.0763.
With `CCCTATGA` the E-score was -0.146.
For `ATCGCCTG`, the E-score was 0.0572.
For `AGTAAGCC`, the E-score was -0.116.
`AAGAACAG` has an E-score of 0.00907.
`AAACCGCC` has an E-score of 0.153.
With `TGCCCTAA` the E-score was 0.0544.
With `ATCATGTG` the E-score was -0.191.
